# Experimental data of several laboratories.
# Several values in a cell are separate wells, animals, samples, runs or records. ± marks the error that the study gave.
SMILES,assay,system,setting,how to read,endpoint,value
OC[C@H]1O[C@@H](n2cnc3c(SCc4ccccc4)nc(Cl)nc32)C[C@@H]1O,UV absorbance,culture medium,stock diluted to 0.40 mM,,solubility,16.8 µM
CN1CCCNC(=O)c2cccc(c2)C(=O)NCCCN(C)CCCNc2cccc3c2C(=O)c2cccc(c2C3=O)NCCC1,,"nude mice, serum","dose not given, 10 days",,CRE,0.13 U/L
Cc1cc(-c2ccc(C(=O)[C@@H]3CCCC[C@H]3C(=O)Nc3cnn4c3C(=O)NCC4)cc2)[nH]n1,,"human, urine and faeces","oral, 200 mg",baseline: dose,recovery of radioactivity,83.1% and 86.3% and 82.6% and 90.4% and 80% and 88.8%
C=CC(=O)N1CCCC(n2c(=O)c3ncccc3n(Cc3ccc(Oc4ccccc4)cc3)c2=O)C1 (stereo not shown),,"male BALB/c mouse, plasma","intraperitoneal, 200 mg/kg, 15 min",,concentration,76400 ng/mL
O=C1CCC(N2Cc3cc(C(=O)O)c(F)cc3C2=O)C(=O)N1 (stereo not shown),,"male cynomolgus monkey, plasma","oral, 0.3 mg/kg of parent drug",,half-life,4.9 ± 2.2 h
CN(O)C(=O)CCC(=O)NCCCN(CCCCN(CCCNC(=O)CCC(=O)N(C)O)C(=O)CCC(=O)N(C)O)C(=O)CCC(=O)N(C)O.[89Zr],,"mouse, blood",1 h,,tracer uptake,0.8 %ID/g
COc1cccc(OC)c1-c1cc(C(=O)NC2(C(=O)O)C3CC4CC(C3)CC2C4)nn1-c1ccc(C(=O)N(C)CCCN(C)C(=O)[C@H](CCCCNC(=O)[C@H](CC(C)C)NC(=O)C2OC2C(=O)O)NC(=O)CN2CCN(CC(=O)[O-])CCN(CC(=O)[O-])CCN(CC(=O)[O-])CC2)cc1C(C)C.[177Lu+3] (mixture of isomers),,mouse HT-29 xenograft,"168 h, biodistribution",baseline: tumour over small intestine,tumour-to-small intestine ratio,23.7
O=C(NS(=O)(=O)c1cccs1)c1cc2ccccc2n1Cc1ccc(Br)c2ccccc12,,"KM mouse, chronic hyperuricaemia model","dose not given, day 28",,body weight,38.2 g and 40.8 g and 36.2 g and 39.2 g and 37.8 g and 38 g
N#Cc1ccnc(N2C(=O)CC[C@H]2C(=O)N(c2cc(F)cc(F)c2)[C@H](C(=O)NC2CC(F)(F)C2)c2ccccc2Cl)c1 (stereo in doubt),,"cynomolgus monkey, plasma","intravenous, 1 mg/kg",,clearance,3.67 mL/min/kg
CC[C@H](C)[C@H](NC(=O)[C@H](CCCCN)NC(=O)[C@H](CCC(=O)O)NC(=O)[C@H](CO)NC(=O)[C@H](Cc1ccccc1)NC(=O)[C@H](CC(C)C)NC(=O)[C@H](CCC(N)=O)NC(=O)[C@H](CO)NC(=O)[C@H](C)NC(=O)[C@H](CCCCN)NC(=O)[C@H](Cc1c[nH]cn1)NC(=O)[C@H](Cc1c[nH]c2ccccc12)NC(=O)[C@H](CCC(N)=O)NC(=O)[C@H](CCCCN)NC(=O)[C@H](CCCCN)NC(=O)[C@H](CC(C)C)NC(=O)CNC(=O)[C@H](C)NC(=O)[C@@H](NC(=O)[C@H](CO)NC(=O)[C@@H](N)CCSC)C(C)C)C(=O)N[C@@H](CO)C(=O)NCC(=O)N[C@@H](C)C(N)=O,circular dichroism,aqueous TFE,"50 µM, pH 7.4, 20 °C",,m value,2.55 ± 0.5 kcal/mol/M
[123I]c1ccc2nc(-c3ccc(-n4ccnn4)nc3)cn2c1,,"Wistar rat, male, red marrow","intravenous, 4 MBq, 1 h",,tissue uptake,0.107 ± 0.018 %ID/g
O=C(Nc1cnccc1-c1ccc([18F])cc1)c1ccnc(NC(=O)C2CC2)c1,,"FVB/NJ mice, both sexes, brain","intravenous, 5 min, median, no P-gp inhibitor",,SUV,0.88
CN(C)C(=O)c1ccnc(N2Cc3cn(Cc4ccc(Cl)cc4)nc3C2)n1,,MDCK-MDR1,,,Papp,65.5 ×10⁻⁶ cm/s
CCC1CNC(CC)CN(C(C(=O)[O-])c2ccc(C(=O)[O-])cc2)C(CC)CN(CC(=O)[O-])C(CC)CN1.[Mn+2] (stereo not shown),ICP-MS,"BALB/c mouse, blood","intravenous, 0.05 mmol/kg, 1440 min, without anaesthesia",,Mn content,0.08 ± 0.02 µg/g
C=C(NC(=O)c1csc(-c2nc3c(cc2O)-c2nc(cs2)C(=O)NC(C(C)O)C(=O)NC(=C(C)OC)c2nc(cs2)C(=O)NC2c4nc(cs4)C(=O)NC(COC(=O)c4c5c6c(cccc6n4O)COC(=O)C(OC4CC(C)(O)C(N(C)C)C(C)O4)C2OC5)c2nc-3cs2)n1)C(N)=O (stereo not shown),,"cynomolgus monkey, female, plasma","intravenous infusion, 1.5 mg/kg twice daily, 0 to 30 h",,AUC(0-last),26300 ng·h/mL
CC(C)=CCC1=C([O-])C(=O)c2ccccc2C1=O.CC(C)=CCC1=C([O-])C(=O)c2ccccc2C1=O.O.[Cu+2].c1ccc(-c2ccccn2)nc1,cyclic voltammetry,CH2Cl2,"0.1 mM, with: 0.1 M Bu4NPF6",baseline: Ag/AgCl (sat. KOH),anodic peak potential,-1.45 V
CC[C@H](C)[C@H](NC(=O)[C@H](CC(N)=O)NC(=O)[C@@H](NC(=O)[C@H](Cc1ccccc1)NC(=O)[C@H](C)NC(=O)[C@H](Cc1ccccc1)NC(=O)[C@@H]1CCCN1C(=O)[C@H](C)NC(=O)[C@@H](NC(=O)[C@H](CO)NC(=O)[C@H](Cc1ccccc1)NC(=O)[C@H](CCCNC(=N)N)NC(=O)[C@H](CCCNC(=N)N)NC(=O)[C@@H](N)CC(C)C)[C@@H](C)O)[C@@H](C)CC)C(=O)N[C@@H](CC(N)=O)C(=O)N[C@@H](CC(N)=O)C(=O)N[C@H](C(=O)N[C@H](C(=O)N[C@@H](CC(N)=O)C(=O)N[C@@H](Cc1ccccc1)C(N)=O)[C@@H](C)CC)C(C)C,near-infrared fluorescence imaging,mouse,IRDye800-labelled,,persistence at injection site,≥ 10 days
CC1Cc2ccccc2N1C(=O)CN1CCN(Cc2ccccc2)CC1 (stereo not shown),,"female NMRI mice, whole blood","intraperitoneal, 10 mg/kg free base, 15 min",,concentration,216 ng/mL and 142 ng/mL
Cc1ccc(OCC(=O)N(Cc2cccs2)c2ccn[nH]2)cc1,ex vivo plasma stability,dog plasma,"750 ng/mL, 24 h, 37 °C",,remaining compound,110%
O=C(Nc1cnccc1-c1ccc([18F])nc1)c1ccnc(NC(=O)C2CC2)c1,ex vivo gamma counting,"FVB/NJ mice, both sexes, cerebellum","intravenous, 120 min, mean, P-gp inhibitor pretreatment, with: tariquidar 15 mg/kg iv",,SUV,0.093
CC(C)(C)C(=O)Nc1ccccc1,,PBS,"2 h, pH 7.4, 25 °C, 2% DMSO",,solubility,438 µM
COCCN(C)C(C)C(=O)NC(Cc1ccc(-c2ccccc2)cc1)B(O)O (stereo not shown),,Caco-2,,,Papp B→A,25 ×10⁻⁶ cm/s
O=C([O-])CN1CCN(CC(=O)[O-])CCN(CC(=O)NCC2CCC(C(=O)NC(Cc3ccc4ccccc4c3)C(=O)NCCCCC(NC(=O)NC(CCC(=O)O)C(=O)O)C(=O)O)CC2)CCN(CC(=O)[O-])CC1.[68Ga+3] (stereo not shown),micro-PET/CT,"mouse 22Rv1 xenograft, tumour",1 h post-injection,,maximum tumour uptake,8.73 ± 1.03 %ID/g
COc1cccc(OC)c1-c1cc(C(=O)NC2(C(=O)O)C3CC4CC(C3)CC2C4)nn1-c1ccc(C(=O)N(C)CCOCCN(C)C(=O)[C@H](CCCCNC(=O)[C@H](CC(C)C)NC(=O)C2OC2C(=O)O)NC(=O)CN2CCN(CC(=O)[O-])CCN(CC(=O)[O-])CCN(CC(=O)[O-])CC2)cc1C(C)C.[177Lu+3] (mixture of isomers),,mouse HT-29 xenograft,"4 h, biodistribution",baseline: tumour over large intestine,tumour-to-large intestine ratio,2.92
OC1(C(F)(F)F)CCN(c2nc(Nc3ccnc(C(F)(F)F)c3)nc(-c3cccc(C(F)(F)F)n3)n2)C1 (stereo not shown),,"monkey, blood","oral, 1 mg/kg",,MRT(0-inf),19.9 ± 3.14 h
CC[C@H](C)[C@@H]1NC(=O)[C@H](Cc2ccc(O)cc2)NC(=O)CCCSC[C@@H](C(=O)N(CC(=O)N[C@@H](CC(C)C)C(=O)NCC(N)=O)Cc2ccc(F)cc2)NC(=O)[C@H](CC(N)=O)NC(=O)[C@H](CCC(N)=O)NC1=O,,human,"intranasal, 400 µg, 11 repeated doses",,subjects with any TEAE,50%
C[C@]12C[C@H](c3ccc(S(C)(=O)=O)cc3)C3=C4CCC(=O)C=C4CC[C@H]3[C@@H]1CC[C@@]2(O)C(F)(F)C(F)(F)F,item: compound (parent),"healthy human volunteers, pooled plasma","oral, 5 mg daily, day 28, 2 h",,plasma concentration,30 ng/mL
C=CC(=O)Nc1cc(Nc2nccc(-c3c[nH]c4ccccc34)n2)c(OC)cc1N(C)CCN(C)C,,human plasma,"72 h, storage stability, LLOQ sample",,recovery,51.2%
